Earlier results that unrelated publications cite.
Numbered parts are unrelated; values within a part may stem from several laboratories. Numbers after ± are the reported error.

Sample 1 — target: dopamine transporter; endpoint: IC50
SMILES = CC(C)CN(C[C@@H](O)[C@H](Cc1ccccc1)NC(=O)O[C@H]1CCOC1)S(=O)(=O)c1ccc(N)cc1; result = > 10000 nM
SMILES = N[C@@H](Cc1ccc(O)c(O)c1)C(=O)O; result = > 10000 nM
SMILES = Nc1nnc(-c2cccc(Cl)c2Cl)c(N)n1; result = > 10000 nM
SMILES = Nc1ccn([C@@H]2O[C@H](CO)[C@@H](O)[C@@H]2O)c(=O)n1; result = > 10000 nM

Sample 2 — organism: Cryptosporidium parvum; method: high-throughput screen; concentration: concentration not given; endpoint: activity
Structure (SMILES) = Cc1cc2c(s1)Nc1ccccc1N=C2N1CCN(C)CC1; result = inactive
Structure (SMILES) = CO[C@H]1/C=C/O[C@@]2(C)Oc3c(C)c(O)c4c(O)c(c5c(nc6cc(C)ccn65)c4c3C2=O)NC(=O)/C(C)=C\C=C\[C@H](C)[C@H](O)[C@@H](C)[C@@H](O)[C@@H](C)[C@H](OC(C)=O)[C@@H]1C; result = inactive
Structure (SMILES) = CN1CCN(C2=Nc3cc(Cl)ccc3Nc3ccccc32)CC1; result = inactive
Structure (SMILES) = CCOC(=O)[C@@]1(CCCCCCOc2ccc(Cl)cc2)CO1; result = inactive
Structure (SMILES) = Nc1nc(F)nc2c1ncn2[C@@H]1O[C@H](CO)[C@@H](O)[C@@H]1O; result = inactive
Structure (SMILES) = CCc1cccc2c3c([nH]c12)C(CC)(CC(=O)O)OCC3 (centres unmarked); result = inactive
Structure (SMILES) = CC1(C)O[C@@H]2C[C@H]3[C@@H]4CCC5=CC(=O)C=C[C@]5(C)[C@@]4(F)[C@@H](O)C[C@]3(C)[C@]2(C(=O)CO)O1; result = inactive
Structure (SMILES) = Cc1cccc(CN2CCN(C(c3ccccc3)c3ccc(Cl)cc3)CC2)c1.Cl.Cl (centres unmarked); result = inactive
Structure (SMILES) = CNNCc1ccc(C(=O)NC(C)C)cc1; result = inactive
Structure (SMILES) = CCN1CCC[C@H]1CNC(=O)c1cc(S(N)(=O)=O)ccc1OC; result = inactive
Structure (SMILES) = CS(=O)(=O)c1ccc(C2=C(c3ccccc3)C(=O)OC2)cc1; result = inactive
Structure (SMILES) = Nc1ccn([C@H]2CC[C@@H](CO)O2)c(=O)n1; result = inactive
Structure (SMILES) = Cc1nc2ccc(CN(C)c3ccc(C(=O)N[C@@H](CCC(=O)O)C(=O)O)s3)cc2c(=O)[nH]1; result = inactive
Structure (SMILES) = COc1cc(N)c(Cl)cc1C(=O)NC1CCN(CCCOc2ccc(F)cc2)CC1OC.O (centres unmarked); result = inactive
Structure (SMILES) = O=C(N[C@H](CO)[C@H](O)c1ccc([N+](=O)[O-])cc1)C(Cl)Cl; result = inactive
Structure (SMILES) = CC(C)(C(=O)c1cccnc1)c1cccnc1; result = inactive
Structure (SMILES) = COc1cc2c(cc1OC)C(=O)C(CC1CCN(Cc3ccccc3)CC1)C2 (centres unmarked); result = inactive
Structure (SMILES) = CC1(C)S[C@@H]2[C@H](NC(=O)Cc3ccccc3)C(=O)N2[C@H]1C(=O)[O-].[K+]; result = inactive
Structure (SMILES) = Nc1ccn([C@@H]2CS[C@H](CO)O2)c(=O)n1; result = inactive
Structure (SMILES) = CN1CCN2c3ncccc3Cc3ccccc3C2C1 (centres unmarked); result = inactive
Structure (SMILES) = Nc1ncnc2c1ncn2[C@@H]1O[C@H](CO)C[C@H]1O; result = inactive
Structure (SMILES) = COc1cc(C)c(/C=C/C(C)=C/C=C/C(C)=C/C(=O)O)c(C)c1C; result = inactive
Structure (SMILES) = CCOC(=O)[C@H](CCc1ccccc1)N[C@H]1CCc2ccccc2N(CC(=O)O)C1=O; result = inactive
Structure (SMILES) = Fc1ccc([C@@H]2CCNC[C@H]2COc2ccc3c(c2)OCO3)cc1.O=C(O)/C=C\C(=O)O; result = inactive
Structure (SMILES) = CC(C)(C#N)c1cc(Cn2cncn2)cc(C(C)(C)C#N)c1; result = inactive

Mixed results
CDK2: Cyclin-dependent kinase 2 (CDK2, Homo sapiens, UniProt P24941)
Compound = N=C(N)NCCC[C@H](N)C(=O)O; tested on = UBR-box; test = binding; endpoint = Kd; result = ~200000 nM
Compound = CNc1ccc(-c2nc3ccccc3s2)cc1; tested on = amyloid-beta aggregates; test = binding, radioligand binding; endpoint = Ki; result = 19.5 nM
Compound = O=C1N[C@H](c2cncc(C#Cc3ccccc3)c2)[C@@H](c2ccccc2Cl)O1; tested on = mGluR5; test = binding, radioligand displacement; endpoint = Ki; result = 0.6 nM
Compound = CN([C@@H]1CCc2c(CC(=O)O)c3ccccc3n2C1)S(=O)(=O)c1ccc(F)cc1; tested on = PTGDR2; endpoint = Ki; result = 2.5 nM
Compound = Cc1cn(-c2cc(NC(=O)c3ccc(C)c(Nc4nccc(-c5cccnc5)n4)c3)cc(C(F)(F)F)c2)cn1; tested on = MCF-7; endpoint = IC50; result = 403 nM
Compound = C[C@@H](N)C1CCN(S(=O)(=O)c2cccc3cnccc23)CC1; test system = mouse, CCM knockout; setting = hemorrhage-associated iron deposition; endpoint = lowest dose reducing nonheme iron; result = 1 mg/kg
Compound = CC(C)=CCCC(C)=CC=O (mixture of isomers); tested on = 12-oxophytodienoate reductase OPR3 (isoform 3); test = ene-reductase biotransformation, substrate; endpoint = conversion; result = 90 to 95%
Compound = CC(=O)Oc1cc2c(s1)CCN(C(C(=O)C1CC1)c1ccccc1F)C2 (centres unmarked); test = VerifyNow P2Y12; test system = STEMI patients; setting = 60 mg loading dose, 2 h; endpoint = high residual platelet reactivity; result = 44%
Compound = CC1=C(C#N)C(c2ccc3c(c2)c(NC(=O)c2ccccc2C)nn3C)C(C#N)=C(C)N1; tested on = PRKAA1; test = enzyme activity; endpoint = IC50; result = > 20000 nM
Compound = CN1C/C=C/COCc2cccc(c2)Nc2nccc(n2)-c2cccc(c2)C1; tested on = CDK2; endpoint = IC50; result = 99 nM
Compound = C[C@@H](c1ccc(-c2ccn(C)c(=O)c2)cc1)N1CC[C@](CC(C)(C)O)(c2ccccc2)OC1=O; tested on = 11β-HSD1; setting = concentration not given, 24 h after dose, day 14, continuous daily treatment; endpoint = inhibition; result = inhibited
Compound = CN(C)CC/C=C1/c2ccccc2Sc2ccc(Cl)cc21; tested on = MCF7; test = microarray, Connectivity Map, refers to: BHLHE40 mRNA; setting = concentration not given, 6 h; scale = reference: DMSO; endpoint = fold change; result = 4.22
Compound = CC1=CC(=O)CC(C)(C)C1=O; tested on = 12-oxophytodienoate reductase OPR1 (isoform 1); test = ene-reductase biotransformation, substrate; endpoint = conversion; result = 95 to 98%
Compound = O=C(Nc1nc2ccccc2[nH]1)c1ccccc1; tested on = PPC-1; setting = 5 µM, PubChem AID 1447; endpoint = response; result = 60%
Compound = C[C@@H](N)C1CCN(S(=O)(=O)c2cccc3c(=O)[nH]ccc23)CC1; tested on = ROCK2 over ROCK1; scale = reference: ROCK1 over ROCK2 potency; endpoint = selectivity ratio; result = ~17 fold
Compound = Nc1scc2c1c(NCCO)nc1ncnc(N)c12; tested on = CDK2; endpoint = IC50; result = 500 nM
Compound = CCCOc1ccc([C@H]2[C@H](C(=O)O)[C@@H](c3ccc4c(c3)OCO4)CN2CC(=O)Nc2c(CC)cccc2CC)cc1; tested on = EDNRB; test = cell-based; endpoint = IC50; result = 0.8 nM
Compound = N[C@@H](CC(=O)O)C(=O)O; setting = carboxylate group; endpoint = pKa; result = ~3.9
Compound = CCNC(=O)[C@H]1O[C@@H](n2cnc3c(N)nc(NCCc4ccc(CCC(=O)O)cc4)nc32)[C@H](O)[C@@H]1O; test = radioligand dissociation; setting = second phase, with allosteric modulator, added: [3H]ZM241385 (ZM241385); endpoint = dissociation rate constant; result = 0.004 ± 0.004 min⁻¹
Compound = Cc1nc(N2CC[C@@H](O)C2)ncc1-c1cc(C(F)(F)F)cc2[nH]ncc12; tested on = METAP2 (human); test = enzyme activity; setting = Co(II) enzyme; endpoint = IC50; result = 31 nM
Compound = CO[C@H]1[C@H](O[C@H]([C@H]2O[C@@H](n3ccc(=O)[nH]c3=O)[C@H](O)[C@@H]2O)[C@H](NCCCNC(=O)[C@@H](NC(=O)[C@@H](NC(=O)N[C@H](C(=O)O)C(C)C)[C@@H]2CCN=C(N)N2)[C@@H](OC(=O)CCCCCCCCCCCCN(O)C(=N)N)C(C)C)C(=O)O)O[C@H](CN)[C@H]1O; tested on = Staphylococcus aureus; test system = mouse infection model; endpoint = ED50; result = 1.1 mg/kg
